Results pooled from the literature.
A part holds a random share of what one study measured. Substitutions count along the parent as printed.

Set 1
Target: Serine/threonine-protein kinase BRSK2 (BRSK2, Homo sapiens, UniProt Q8IWQ3)
Observed: enzyme activity
Action: inhibitor
Concentration: 0.5 µM
Relative to: control
Construct (Q8IWQ3 1-736): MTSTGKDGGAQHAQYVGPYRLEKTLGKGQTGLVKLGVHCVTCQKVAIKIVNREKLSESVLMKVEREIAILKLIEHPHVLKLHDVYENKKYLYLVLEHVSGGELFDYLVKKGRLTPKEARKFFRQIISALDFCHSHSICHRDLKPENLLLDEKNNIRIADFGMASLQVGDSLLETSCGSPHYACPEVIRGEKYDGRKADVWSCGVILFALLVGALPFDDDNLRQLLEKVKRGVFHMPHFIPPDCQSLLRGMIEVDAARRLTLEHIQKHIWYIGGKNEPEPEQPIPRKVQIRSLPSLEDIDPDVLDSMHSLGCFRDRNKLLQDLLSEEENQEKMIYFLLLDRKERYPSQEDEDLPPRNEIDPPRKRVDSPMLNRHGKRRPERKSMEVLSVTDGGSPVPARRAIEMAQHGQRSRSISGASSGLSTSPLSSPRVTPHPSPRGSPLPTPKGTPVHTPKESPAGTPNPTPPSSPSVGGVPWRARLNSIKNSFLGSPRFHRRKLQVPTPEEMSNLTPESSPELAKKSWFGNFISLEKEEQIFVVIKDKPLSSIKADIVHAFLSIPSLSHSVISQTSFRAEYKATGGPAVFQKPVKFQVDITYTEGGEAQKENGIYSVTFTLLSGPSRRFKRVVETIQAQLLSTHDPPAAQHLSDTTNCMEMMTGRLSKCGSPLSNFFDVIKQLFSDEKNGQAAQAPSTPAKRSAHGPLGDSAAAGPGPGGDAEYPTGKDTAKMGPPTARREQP
Structure (SMILES)	remaining activity [%]
OCC(O)CCON=C1C(c2c(O)[nH]c3ccccc23)=Nc2ccccc21 (centres unmarked)	33.3
NCCNc1ncc(C(N)=O)c(Nc2cccc(C(F)(F)F)c2)n1	96.9
O=S(=O)(c1cccc2cnccc12)N1CCCNCC1	91.7
Cc1ccc(NC(=O)c2ccc(CN3CCN(C)CC3)cc2)cc1Nc1nc(-c2cccnc2)cs1	99.9
CC(C)[C@H](CO)Nc1nc(Nc2cc(N)cc(Cl)c2)c2ncn(C(C)C)c2n1	88.2
Cn1c2ccccc2c2c3c(c4c5ccccc5n(CCC#N)c4c21)CNC3=O	26.3
O=C1NC(=O)C(c2cn(CCCO)c3ncccc23)=C1c1cnccn1	90.4
O=c1c2ccccc2[nH]c(=S)n1CCN1CCC(=C(c2ccc(F)cc2)c2ccc(F)cc2)CC1	99.8

Set 2
Target: ATF7, bZIP domain (human)
Method: DHFR protein complementation
Sample: yeast
Setting: single substitutions, most at no-binding floor
Relative to: wild-type JUN-FOS pair
Reading: higher = stronger binding
Parent: JUN, bZIP domain (human); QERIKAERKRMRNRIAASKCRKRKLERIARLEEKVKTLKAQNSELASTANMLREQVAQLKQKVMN; partner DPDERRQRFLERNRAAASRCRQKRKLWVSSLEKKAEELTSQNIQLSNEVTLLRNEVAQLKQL
Variant	binding fitness [natural log]
L45T	-1.47
A57T	-1.05
R53N	-1.45
S43V	-0.976
K39F	-1.33
A49W	-1.31
A49L	-1.05
L59G	-1.44

Further values, each from its own experiment
Structure (SMILES)	tested on	assay	system	setting	scale	measurement	result
O=C(Nc1nc2cc(C(F)(F)F)cc(NC3CC3)n2n1)c1cccnc1	mouse MPNST tumor cells	high-content immunofluorescence imaging, refers to: nuclear SOX9	–	10 µM, 12 h, mean of 2 replicates	relative to: DMSO control, higher = more nuclear SOX9	nuclear SOX9 intensity	147 % of DMSO
COc1ccc(-c2c(Nc3ccccn3)[nH]c3c(C4=CCCCC4)c(-c4ccccc4)nn3c2=O)cc1	–	LC-MS/MS non-compartmental	human, plasma	oral, 50 mg once daily, cycle 1	–	AUC(all)	32300 ng·h/mL
CC[C@H](C)C[C@H](C)CCCCCCCCC(=O)N[C@H]1C[C@@H](O)[C@@H](NCCN)NC(=O)[C@@H]2[C@@H](O)CCN2C(=O)[C@H]([C@H](O)CCN)NC(=O)[C@H]([C@H](O)[C@@H](O)c2ccc(O)cc2)NC(=O)[C@@H]2C[C@@H](O)CN2C(=O)[C@H]([C@@H](C)O)NC1=O	A-375	–	–	100 µM, 36 h	–	viability	12.8%
COc1cc(=O)[nH]cc1C(=O)NCCc1cn(C)c2cc(C)ccc12	–	–	mouse, microsomes or S9	2 µM, 0.5 h	–	remaining compound	1.63%
C/C(O)=C(\C#N)C(=O)Nc1ccc(C(F)(F)F)cc1	A-375	–	–	100 µM, 36 h	–	viability	59.8%
O=C(O)CCc1ccc(N2Cc3ccc(NC(=O)c4ccccc4)cc3C2=O)cc1	–	–	mouse, microsomes or S9	2 µM, 0.5 h	–	remaining compound	85.5%
O=C(NC/C=C/CN1CCN(c2cccc(Cl)c2Cl)CC1)c1ccc(-c2ccccn2)cc1	mouse MPNST tumor cells	high-content immunofluorescence imaging, refers to: nuclear SOX9	–	10 µM, 12 h, mean of 2 replicates	relative to: DMSO control, higher = more nuclear SOX9	nuclear SOX9 intensity	186 % of DMSO

A few entries again (set 2):
Variant	binding fitness [natural log]
L59G	-1.44
A49L	-1.05
A49W	-1.31
A57T	-1.05
